Assay results of several laboratories.
Every numbered part comes from another study and shows a few of its results, in no order.

Sample 1 — technique: universal PBM; form: double-stranded DNA, one strand shown; medium: in vitro; tested at: 600 nM; reading: higher = stronger binding; endpoint: E-score
Target: Sal-like protein 4, full length isoform A (SALL4, Homo sapiens, UniProt Q9UJQ4, residues 1-1053)
UniProt Q9UJQ4, sequence (whole entry, looked up): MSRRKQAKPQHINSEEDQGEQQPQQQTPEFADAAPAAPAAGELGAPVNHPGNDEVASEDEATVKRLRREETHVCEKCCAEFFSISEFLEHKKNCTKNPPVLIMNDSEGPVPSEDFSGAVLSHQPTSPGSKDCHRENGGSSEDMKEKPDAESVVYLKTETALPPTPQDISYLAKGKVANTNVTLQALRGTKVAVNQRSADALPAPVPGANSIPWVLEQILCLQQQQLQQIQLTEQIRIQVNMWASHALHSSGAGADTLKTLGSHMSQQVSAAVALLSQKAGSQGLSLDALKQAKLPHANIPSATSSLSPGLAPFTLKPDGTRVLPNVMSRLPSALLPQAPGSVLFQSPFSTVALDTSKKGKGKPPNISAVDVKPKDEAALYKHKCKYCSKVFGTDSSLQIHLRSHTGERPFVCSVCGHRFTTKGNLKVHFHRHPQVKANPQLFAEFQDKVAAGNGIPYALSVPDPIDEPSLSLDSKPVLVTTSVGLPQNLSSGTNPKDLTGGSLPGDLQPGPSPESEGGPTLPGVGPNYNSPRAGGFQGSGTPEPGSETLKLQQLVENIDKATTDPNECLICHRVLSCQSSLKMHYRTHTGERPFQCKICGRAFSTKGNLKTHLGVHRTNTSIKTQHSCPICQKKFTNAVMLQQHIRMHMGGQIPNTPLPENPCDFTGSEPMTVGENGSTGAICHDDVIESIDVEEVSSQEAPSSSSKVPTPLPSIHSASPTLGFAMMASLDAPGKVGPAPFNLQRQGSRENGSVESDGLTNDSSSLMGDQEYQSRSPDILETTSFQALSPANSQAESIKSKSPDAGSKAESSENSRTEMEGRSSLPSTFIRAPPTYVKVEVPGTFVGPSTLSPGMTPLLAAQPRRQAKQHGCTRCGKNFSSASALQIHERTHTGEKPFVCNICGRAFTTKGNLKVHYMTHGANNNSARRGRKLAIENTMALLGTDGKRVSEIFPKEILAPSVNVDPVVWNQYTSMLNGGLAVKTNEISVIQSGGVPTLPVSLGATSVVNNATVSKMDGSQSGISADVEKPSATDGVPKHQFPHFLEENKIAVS
Notes: 8-mer, flanks averaged, mean of replicates
AGTTATGC: 0.298
CAAGCTCC: -0.228
AAACGGGT: -0.0495
GAACAACC: 0.0635
ATTGGCAG: -0.112
TACTCCTA: 0.108
CTATGCGC: -0.0436
ACCCCTAC: -0.216
AGGCAGTC: -0.189
AATGGGGC: -0.258

Sample 2 — technique: RNA Bind-n-Seq; form: RNA; medium: in vitro; tested at: 365 nM; relative to: no-protein control; reading: higher = stronger binding; endpoint: RBNS enrichment (R)
Target: RNA binding protein fox-1 homolog 2, RRM domain, GST-SBP tag (RBFOX2, Homo sapiens, UniProt O43251-10, residues 100-194)
Notes: natural RNA segment, single round, ends assumed
Shared flanks, not repeated: GGGAGUUCUACAGUCCGACGAUC … UGGAAUUCUCGGGUGCCAA
Construct (chain): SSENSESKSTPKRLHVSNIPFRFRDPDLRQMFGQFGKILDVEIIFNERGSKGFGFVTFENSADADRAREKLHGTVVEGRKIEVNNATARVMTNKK
AAUAAUCCUAAAUUCUCUGGAAUAAAAAACUGAUUUCUUUGUUAAUUACUUGUACGAUGAAGGAUGCCUUUAAAAAAAAAUCAAAAUAAAUUAAACUGGUAAUGUUGAAU: 0.603
GUGUUGGGAGGGCAGGAGCAUUCCUUGAGGAGGAGUGGCAACAUCAAAGUGUUUGUGUCCCUUGCCAGCCUCCCUGGGGUCUGGGGACCUGCAGCAGCAUGUCUGGCAAA: 2.91
UUUCGGGGGUCGGGGGAGGGCUCUUCAGAUGCCUCCAUAGGACCAAGUCCCCAUCAUUGCCGGGAGUGUGGAUUCUAGCAGCAGAGCUGGAAACGAUGAGAUUCCACAGA: 0.578
UUAUCCAUACCCAUGGAAACUAAAGAGAAGCCUGCCCCAUUUCUUCGUCCUUUGUUUGCCUUUGUGGAAAGACAGAAGGCUGGCCUCCACUCUCAGCUUGCAGGUCUUCG: 3.25
UCAACUGCUAGUGCUAACGCUGUCCUGUACAACCUAACUCACUGGCAAGAAUGCAGUGUUGGGCCUUUCAACCACUAGAACAAACUUUUUUCAAUUGACAGUUGCAGAAU: 0.265
GCUCAGAAGGCCAUAUUAUAGAAUGUCAUUUUUAAAAAAUAAAAUAUAAAGCAUACUUUCGAAAUACAAAGGACACUCAUUACAACCCCCAAACUCAGAUCCAGGUAUGA: 0.529

Sample 3 — technique: protein-binding microarray; form: double-stranded DNA, one strand shown; medium: in vitro; tested at: 0.8 µM; notes: whole 60-bp probe, no competitor; reading: higher = stronger binding; endpoint: fluorescence intensity; shared flanks, not repeated: … GTCTTGATTCGCTTGACGCTGCTG
Target: Centromere-binding protein 1, full length, N-terminal tag (CBF1, Saccharomyces cerevisiae, UniProt P17106, residues 1-351)
UniProt P17106, sequence (whole entry, looked up): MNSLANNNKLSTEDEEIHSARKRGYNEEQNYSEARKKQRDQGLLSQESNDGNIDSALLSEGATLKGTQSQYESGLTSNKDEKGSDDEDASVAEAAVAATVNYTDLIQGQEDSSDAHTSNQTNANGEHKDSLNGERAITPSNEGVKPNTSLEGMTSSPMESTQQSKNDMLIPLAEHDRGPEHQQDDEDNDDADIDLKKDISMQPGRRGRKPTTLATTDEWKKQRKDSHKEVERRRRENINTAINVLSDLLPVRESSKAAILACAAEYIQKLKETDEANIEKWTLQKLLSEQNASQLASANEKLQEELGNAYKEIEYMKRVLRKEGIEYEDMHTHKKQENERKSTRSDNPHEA
GAACTCATGGATCCTCGTGAGCAACATTTTCATTAG: 684 a.u.
GAAGCCCATTTCTGGGACATCAGCACTTGCGGTTAG: 545 a.u.
CTAAACTTGTACTTGCACATGTATCTTATTGTTTTC: 716 a.u.
GAACGATACCAACATTATCTGATGTTTCAATGTTAG: 514 a.u.
GAAGTTCCTTGCTATCACGTTTGTGCAAGGTATTAG: 927 a.u.
CTAGAGATAGCTGGTCATCACAATAGATCAGCCTTC: 489 a.u.
TGTACGAAGCTATGTCACGTGGTTATAGTAGTTAGG: 14600 a.u.

Other studies, line by line
PhoQ, residues 284 288 289 292 302 303 SSYNSA — fold induction (PhoP, residues 12 14 15 18 19 NHTVL (Escherichia coli, UniProt P23836); Sort-seq, measured: YFP reporter; E. coli; PhoQ-PhoP variant library, with: 10 µM Mg2+; relative to: high Mg2+ state, higher = stronger signaling): 1.05

A few entries again (sample 2):
GCUCAGAAGGCCAUAUUAUAGAAUGUCAUUUUUAAAAAAUAAAAUAUAAAGCAUACUUUCGAAAUACAAAGGACACUCAUUACAACCCCCAAACUCAGAUCCAGGUAUGA: 0.529
UUUCGGGGGUCGGGGGAGGGCUCUUCAGAUGCCUCCAUAGGACCAAGUCCCCAUCAUUGCCGGGAGUGUGGAUUCUAGCAGCAGAGCUGGAAACGAUGAGAUUCCACAGA: 0.578
UCAACUGCUAGUGCUAACGCUGUCCUGUACAACCUAACUCACUGGCAAGAAUGCAGUGUUGGGCCUUUCAACCACUAGAACAAACUUUUUUCAAUUGACAGUUGCAGAAU: 0.265
